Published values collected from several papers.
Numbered parts are unrelated; each lists some results of a single study.

Block 1
Target: RNA binding protein fox-1 homolog 2, RRM domain, GST-SBP tag (RBFOX2, Homo sapiens, UniProt O43251-10, residues 100-194)
Method: RNA Bind-n-Seq
Molecule type: RNA
Matrix: in vitro
Concentration: 365 nM
Setting: natural RNA segment, single round, ends assumed
Baseline: no-protein control
Direction: higher = stronger binding
All sequences stand within: GGGAGUUCUACAGUCCGACGAUC … UGGAAUUCUCGGGUGCCAA
Construct (chain): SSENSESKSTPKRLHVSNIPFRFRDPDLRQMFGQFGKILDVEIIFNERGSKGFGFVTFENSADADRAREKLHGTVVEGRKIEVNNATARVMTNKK
For `UCUUUGGUUUGUGCUAGGCCCCCGGGUGUGAAGCACAGACCCCUUCCAGGGGUUUACAGUCUAUUUGAGACUCCUCAGUUCUUGCCACUUUUUUUUUUAAUCUCCACCAG`, “RBNS enrichment (R)” read 0.676.
For `CCCAUCAGGCAGGCGCCAGUCCGCUGGGUCCCUGUCCAUCCUUUCCACCCCCAGUACCCCAGGUGUGUAUACCCAGGUCAUACACUGCAACCCCAAGUGGUCCCAGGAUC`, “RBNS enrichment (R)” read 0.382.
For `AGGUUUGAUGUGGAAUCAUGGCUGCAGUGAUAUGUUUUUAUCAGCGCUUGGUGGUUUUAAAGUGCAUGCUAUUUUAUUAUCUUCUUCUGAAUAAAAUGUAUUUACUCAAA`, “RBNS enrichment (R)” read 12.5.
`UGGCCUCUCACCCCCAAGGCUGUCUCUGGCCCUGCCGAGCCUAUGGGAGUCCCGGGACAGAGUGCCCACUCCCCUCUACUUGCUGCUCUGGGCCUCCCCACCUUUCCUGG` — result for “RBNS enrichment (R)”: 0.244.
`UUGCAAGGCUGUACAAUGUGUGCUGAUGCAAGCCUUUUUCAGUUCAAGAGAAUAAAUGUUUACAAAUAUAGGCUCACUUUGUCUUUUUUUUAAUUAAAAACACCUUUUAA`: “RBNS enrichment (R)” 0.672.
`UGUUUUCAGCUACUUGCAAAUCUUCCUGGUCGAAAGUUAGUAGGAUAUGCCUGCUCUUUGGCCUGAUGACGAAUUUCAACUUUGAAACAUUUUCUUUUGUCCUCCCCAAA` — result for “RBNS enrichment (R)”: 0.3.

Block 2
Target: Prothrombin, mature alpha-thrombin (F2, Homo sapiens, UniProt P00734)
Method: aptamer microarray, sandwich
Molecule type: DNA with 2'F-ANA
Matrix: in vitro
Concentration: 200 nM
Setting: whole 15-mer aptamer, many near background
With: Cy3 exosite-II aptamer, 400 nM
Direction: higher = stronger binding
Sequence: GGTTGGTGTGGTTGG
`2'F-ANA at 1 2 3 5 7 9 11 12 13 14 15`: “mean fluorescence intensity” 49.9 a.u.
`2'F-ANA at 1 3 4 8 9 13 14`: “mean fluorescence intensity” 68.6 a.u.
`2'F-ANA at 2 3 4 6 7 8 9 12 13`: “mean fluorescence intensity” 554 a.u.
`2'F-ANA at 1 3 5 6 7 9 10 12 13` — result for “mean fluorescence intensity”: 48.2 a.u.
`2'F-ANA at 1 6 7 8 10 14`: “mean fluorescence intensity” 80.2 a.u.

Block 3
Target: PABPC1L2, full length, GST fusion (mouse, UniProt A0ABA7IW68)
Method: RNAcompete
Molecule type: RNA
Matrix: in vitro
Concentration: 20 nM
Setting: 7-mer, probes averaged, single round
Baseline: mean of 7-mers
Direction: higher = stronger binding
Residues (chain): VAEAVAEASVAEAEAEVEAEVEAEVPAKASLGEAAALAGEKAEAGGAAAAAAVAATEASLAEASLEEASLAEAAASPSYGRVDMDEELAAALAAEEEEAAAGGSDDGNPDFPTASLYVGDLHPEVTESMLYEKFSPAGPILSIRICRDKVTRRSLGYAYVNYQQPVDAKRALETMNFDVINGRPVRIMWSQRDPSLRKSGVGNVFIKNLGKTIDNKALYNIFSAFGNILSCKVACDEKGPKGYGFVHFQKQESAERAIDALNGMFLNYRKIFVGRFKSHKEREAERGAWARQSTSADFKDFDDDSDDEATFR
`CGAGACU` gave a 7-mer Z-score of -0.0518.
The 7-mer Z-score of `GCAAAGG` is reported as 0.198.
The 7-mer Z-score of `UUGGGCU` is reported as -0.012.
For `UGCAUUU`, the 7-mer Z-score was -0.186.
`AUGUUAA` has a 7-mer Z-score of 0.0605.
`UACCCCU` has a 7-mer Z-score of -0.447.

Mixed results
With `PhoQ, residues 284 288 289 292 302 303 GLASVI` the fold induction was 1.67 (PhoP, residues 12 14 15 18 19 LHSVW (Escherichia coli, UniProt P23836); Sort-seq, refers to: YFP reporter; E. coli; PhoQ-PhoP variant library, with: 10 µM Mg2+; baseline: high Mg2+ state, higher = stronger signaling).

Excerpt of the above (block 2):
`2'F-ANA at 1 6 7 8 10 14`: “mean fluorescence intensity” 80.2 a.u.
